Assay results gathered from unrelated publications.
Numbered parts are unrelated; each lists some results of a single study. Changes are numbered by the printed parent chain.

Sample 1
Target: ABI1, truncated, D143A, DHFR fusion (Arabidopsis thaliana)
Technique: DHFR PCA, deep sequencing
Medium: yeast
Setting: methotrexate growth selection, single substitutions
Together with: (+)-ABA 2500 µM
Baseline: wild-type fitted maximum
Reading: higher = stronger binding
Parent: PYL1, truncated, DHFR fusion (Arabidopsis thaliana); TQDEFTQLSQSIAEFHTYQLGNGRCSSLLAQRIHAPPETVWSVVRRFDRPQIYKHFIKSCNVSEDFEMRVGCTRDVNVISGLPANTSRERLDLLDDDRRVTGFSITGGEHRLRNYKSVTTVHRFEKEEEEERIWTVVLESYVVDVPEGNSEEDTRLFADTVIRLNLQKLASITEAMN
Substitution | relative binding score [%]
Y115R | -3.95
S80I | 48.2
I105R | 8.07
E131D | 103
T173W | 92.3
E131T | 107
F15H | 91.9
F103W | 94.3
R32K | 105
L20W | 91.4
S59Q | 94.1
D3M | 98.9
E67T | 99.2
D144E | 93.2
L138D | 14.6
G102P | -4.7
F103S | 18.6
T106E | 106
F5S | 99.9
N165M | 18
V78S | 79.1
P83D | 90.9

Sample 2
Target: Ras GTPase-activating protein-binding protein 1, C-terminal RGG region (G3BP1, Homo sapiens, UniProt Q13283)
Sequence of UniProt Q13283 (whole entry, looked up): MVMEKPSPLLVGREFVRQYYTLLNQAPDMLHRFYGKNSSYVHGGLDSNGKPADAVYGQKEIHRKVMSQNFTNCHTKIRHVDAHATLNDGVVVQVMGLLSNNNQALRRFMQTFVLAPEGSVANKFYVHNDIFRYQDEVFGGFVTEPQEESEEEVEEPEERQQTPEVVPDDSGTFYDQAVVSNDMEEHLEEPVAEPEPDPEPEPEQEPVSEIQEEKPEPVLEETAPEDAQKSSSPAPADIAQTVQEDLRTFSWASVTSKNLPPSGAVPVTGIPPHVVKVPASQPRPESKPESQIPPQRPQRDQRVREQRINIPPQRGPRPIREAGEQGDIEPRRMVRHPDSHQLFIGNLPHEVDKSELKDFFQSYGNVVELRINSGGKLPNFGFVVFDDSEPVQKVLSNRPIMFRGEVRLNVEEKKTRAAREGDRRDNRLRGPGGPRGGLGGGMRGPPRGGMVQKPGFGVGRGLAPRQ
Technique: RNA Bind-n-Seq
Molecule type: RNA
Medium: in vitro
Tested at: 1 µM
Setting: whole 134-nt RNA, ends assumed
Together with: 150 mM KCl
Baseline: input library
Reading: higher = stronger binding
Oligonucleotide | log2 enrichment
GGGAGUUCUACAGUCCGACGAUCGUCCUGUGCUACACAUCGUAUGUACCGAAUCGGGAGGGAAAAAAAGGGAAAAAAAGGGAAAGUAUUAUGUUACGCCGUUCGGAUCUGCACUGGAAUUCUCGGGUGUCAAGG | -0.23
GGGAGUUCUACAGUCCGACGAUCUGGCCCUGGUGGCAUGCGGGGGGGAAGAGGUGGCCUCAUGGAUCGUGGUGGUCCCGGUGGAAUGUUCAGAGGUGGCCGUGGUGGAGACAGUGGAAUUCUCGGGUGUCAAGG | 2.25
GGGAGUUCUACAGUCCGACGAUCACCAUGCAGGUGGGCAUCUUUGGGAAAAGGGGCAAGGGGGGGAUAGGGAGGGGGGUAACACUUUGGGAACAGGUGGUCCCAGGUCGUUUCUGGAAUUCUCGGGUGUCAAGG | -0.954
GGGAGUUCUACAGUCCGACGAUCACCAUGCAGGUGGGCAUCUUUGGGAAGUGGGGCAAGGGGGGGAUAGGGAGGGGGGUAACACUUUGGGAACAGGUGGUCCCAGGUCGCUUCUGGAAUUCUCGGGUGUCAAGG | 1.61
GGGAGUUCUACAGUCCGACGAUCGUCCUGUGCUACACAUCGUAUGUACCGAAUCGGCCCCCCGGCCCCCCGGGCCCCCCGGGAAAGUAUUAUGUUACGCCGUUCGGAUCUGCAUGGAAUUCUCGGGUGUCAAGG | -1.04
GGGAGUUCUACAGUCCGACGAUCAAGUCCUGUGCUACACAUCGUAUGUACCGAAUCGGGUUUGGGAAAAAAAGGGAGGGAAAGUAUUAUGUUACGCCGUUCGGAUCUGCACUUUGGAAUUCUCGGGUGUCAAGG | 1.24
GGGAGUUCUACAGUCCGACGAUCUGGCCCUGGUGGCAUGCGGGGAGGAAGAGGUGGCCUCAUGGAUCGUGGUGGUCCCGGUGGAAUGUUCAGAGGUGGCGGUGGUGGAGACAGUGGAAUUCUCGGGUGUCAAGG | 3.22
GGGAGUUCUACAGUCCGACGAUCAAGUCCUGUGCUACACAUCGUAUGUACCGAAUCGGGAAAGGGAAAGGGAAAAAGGGAAAGUAUUAUGUUACGCCGUUCGGAUCUGCACUUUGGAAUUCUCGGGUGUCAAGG | 0.545
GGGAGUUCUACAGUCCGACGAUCCUCAAGUCCUGUGCUACACAUCGUAUGUACCGAAUCGGCCGGGCCGGGGCCGGGAAAGUAUUAUGUUACGCCGUUCGGAUCUGCACUUCCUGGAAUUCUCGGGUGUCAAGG | -1.07
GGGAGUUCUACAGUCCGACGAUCUCAAGUCCUGUGCUACACAUCGUAUGUACCGAAUCGGUUUGGUGGUUUUUUUGGAAAGUAUUAUGUUACGCCGUUCGGAUCUGCACUUCCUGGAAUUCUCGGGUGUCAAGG | -1.03

Sample 3
Target: Interferon regulatory factor 3, full length, phosphomimetic (IRF3, Homo sapiens, UniProt Q14653, residues 1-427, S386D/S396D/S398D/S402D/T404D/S405D)
Sequence of UniProt Q14653 (whole entry, unmodified, looked up): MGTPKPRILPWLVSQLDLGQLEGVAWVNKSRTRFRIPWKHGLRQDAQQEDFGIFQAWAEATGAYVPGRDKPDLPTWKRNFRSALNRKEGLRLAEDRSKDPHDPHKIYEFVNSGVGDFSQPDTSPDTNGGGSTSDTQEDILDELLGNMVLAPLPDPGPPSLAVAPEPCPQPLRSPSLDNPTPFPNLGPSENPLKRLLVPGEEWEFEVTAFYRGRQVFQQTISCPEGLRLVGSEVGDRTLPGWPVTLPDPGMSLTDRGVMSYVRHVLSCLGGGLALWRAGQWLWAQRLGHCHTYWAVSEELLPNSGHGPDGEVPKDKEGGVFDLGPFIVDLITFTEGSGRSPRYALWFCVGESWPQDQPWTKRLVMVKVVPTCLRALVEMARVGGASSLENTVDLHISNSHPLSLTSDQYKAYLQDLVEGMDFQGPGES
Technique: protein-binding microarray
Molecule type: double-stranded DNA, one strand shown
Medium: in vitro
Tested at: 2540 nM top
Setting: 60-bp whole probe
Together with: salmon DNA 0.4 mg/ml
Baseline: random background probes
Reading: higher = stronger binding
All sequences stand within: GCCTAGCAC … GTCTTGATTCGCTTGACGCTGCTG
Oligonucleotide | fitted relative affinity [z-score]
GACGGTTTCGGTTCCGGCACGTGCTAG | 10.3
GCCGGTATCGGGACTGGGGACGTGCTA | 2.06
GACGAACTGGGGACTGGAGTCGTGCTA | -0.434
TACAAATCCAGCCCTACAGAGTGCTAG | -0.0184
TCATCATTTTCTTTAACACTGTGCTAG | 1.36
TTAGGTTTCCTTATCCCTTAGTGCTAG | 7.65
TTAGGTCTCTTACTGCTTTAGTGCTAG | -0.127
TTAGGTCACCTTTTCCTTTAGTGCTAG | 3.08
TTAGGTATCCTTCCCCTTTAGTGCTAG | 3.21
CACTATTTAAGACCTATGCACGTGCTA | 0.459
TTAGGACTGCGTTTCCTTTAGTGCTAG | 1.73
GACGATATCAGTATCGAGAAGTGCTAG | 1.06
TTAGATTTCAGTCTAGATTAGTGCTAG | 1.54
TCAACCATCCTGTGTCTTACTGTGCTA | 0.228
GGGCCCTGCTGGGAAGTCAGGTGCTAG | -0.96
TATCTTATGATATATATAATAGTGCTA | 0.698
GTAGGTATCGGGTTTCGGTTAGTGCTA | 3.98
CACGGTTTCGGACTGGGGACGTGCTAG | 3.95
TTAGATTTGGGGTATCGATTAGTGCTA | -0.161
TTAGGCATCGACTATCGGTTAGTGCTA | -0.474
GACGATTTCGGGTATCGAGACGTGCTA | 1.81
TCAGTTCTTATCCTTCCCACTGTGCTA | 1.51
TCAACTCTTGCTTTTTAACTGTGCTAG | 0.52
GACGGTATCCTTCCCCTGACGTGCTAG | 3.05
GAAGGACTGGGTCTCGGGACGTGCTAG | -1.07

Sample 4
Target: Histone acetyltransferase KAT6A, winged helix 2, GST fusion (KAT6A, Homo sapiens, UniProt Q92794, residues 85-181)
Technique: protein binding microarray
Molecule type: double-stranded DNA, one strand shown
Medium: in vitro
Tested at: not given
Setting: 8-mer, flanks averaged, mean of 2 arrays, mostly near background
Baseline: not given
Reading: higher = stronger binding
Residues (chain): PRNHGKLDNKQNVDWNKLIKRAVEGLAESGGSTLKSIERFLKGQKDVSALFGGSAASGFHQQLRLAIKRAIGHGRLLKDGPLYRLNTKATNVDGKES
Oligonucleotide | E-score
GCATTATA | -0.0856
AGATTTAA | 0.12
AGCGGGCA | -0.0261
ACTGTAGC | -0.226
ACTACGCG | 0.0799
CTCGCACC | 0.132
CTAACGAA | 0.0336
ACATAGAG | -0.148
AAGGGTCT | -0.296
GGAGTCAC | -0.126
AAACTGGA | -0.0226
ATGTACGG | -0.183
CGCCGGTC | 0.0948
ATGGCAAA | -0.0234
ATATCTAA | -0.0509
CACAACAG | -0.152
CCCATCAC | -0.0124
AGGTTGGC | 0.0456
AATAGGAG | -0.136
CCCCCAAA | -0.035
ATATGCAT | -0.0698
CTATATCC | -0.0911
CAGGAATA | -0.119
GGGTAGTA | -0.213
CCCGTTCC | 0.181

Excerpt of the above (sample 1):
Substitution | relative binding score [%]
E67T | 99.2
D144E | 93.2
L138D | 14.6
G102P | -4.7
F103S | 18.6
T106E | 106
